Experimental data gathered from unrelated publications.
Target: Myosin-IIIb (MYO3B, Homo sapiens, UniProt Q8WXR4)

Compound | assay | setting | scale | endpoint | result
CC(C)=CC1OC(C)(C)C2C=C3C(=O)C(Cl)=CC(O)C3C3C(O)C4OC4C(=O)C132 (stereo not shown) | cell-free assay, competition with immobilised ligand | 10 µM |  | remaining binding | 100%
CCn1cc(C(=O)O)c(=O)c2c(N)c(F)c(NC3CCCCC3)cc21 | kinase activity | 0.1 µM, with: ATP at Km |  | inhibition | -5.9%
O=C(Cc1ccc(OCc2ccccc2)cc1)NC1(C(=O)O)CCN(C(=O)c2ccc(-c3cccc(Cl)c3)cc2)CC1 | enzyme activity, inhibitor | 10 µM |  | activity vs control | 100%
Nc1ncc2c(n1)-c1c([nH]c3ccc(C4=CCOCC4)cc13)CCC2 | binding, competition with immobilised ligand | 1 µM |  | remaining binding | 91%
Nc1ncc(-c2cc(-c3cnn(CC(F)(F)F)c3)ncc2F)nc1C(=O)NC1CNCC(F)C1 (stereo not shown) | enzyme activity | 1 µM | baseline: DMSO control | remaining activity | 108%
C=CC(=O)N1Cc2nc(-c3cc(-c4cc(Cl)cnc4Cl)c(F)cc3F)n(-c3ccncn3)c2C1 | cell-free assay | 1 µM |  | inhibition | 9.1%
CN1CC[C@@H](COc2cnc(C#N)cc2-c2ccn3nc(NC(=O)C4CC4)cc3c2)C1 | enzyme activity, inhibitor | 1 µM |  | inhibition | 4%
COc1c(Cl)cccc1Nc1c(-c2ccncc2C#C[C@@]2(C)CCCN2C(=O)/C=C/CN(C)C)[nH]c2c1C(=O)NCC2 | binding, competition with immobilised ligand | 3 µM |  | remaining binding | 88%
Cc1cnc2nc1Nc1cccc(c1)COC/C=C/COCc1cc(ccc1OCCN1CCOCC1)N2 | binding | 0.1 µM |  | remaining binding | 97%
NC(=O)C[C@H]1CCc2sc3ncnc(O[C@H]4CC[C@H](N5CCOCC5)CC4)c3c21 | enzyme activity, inhibitor | 10 µM |  | inhibition | 3%
C=CC(=O)N1CCCC(n2c(=O)c3ncccc3n(Cc3ccc(Oc4ccccc4)cc3)c2=O)C1 (stereo not shown) | cell-free assay, competition with immobilised ligand | 1 µM |  | remaining binding | 100%
Cc1ccc(-c2c(/C=C(\C#N)C(=O)NC(C)C)n(CCCO)c3ncnc(N)c23)cc1 | binding, competition with immobilised ligand | 1 µM |  | remaining binding | 78%
CCN1CCN(Cc2ccc(C(=O)Nc3ccc(C)c(NCc4cnc5[nH]ccc5c4OC)c3)cc2C(F)(F)F)CC1 | binding, competition with immobilised ligand | 1 µM |  | remaining binding | 49%
COc1cc(Nc2nc(C)cc(-c3cnn4nc(OC)ccc34)n2)cc(C(F)(F)F)c1 | inhibitor | 1 µM | baseline: control | remaining activity | 100%
CNC(=O)C[C@H](Cc1ccc(C#N)cc1)NC(=O)c1cc(-c2ccc(CN[C@H](C)c3ccc(C)cc3)o2)ccc1Cl | enzyme activity, inhibitor | 1 µM |  | activity vs control | 108%
CN1CCN(Cc2ccc(-c3ccc(CO[C@H]4CCC[C@@H]4NC(=O)c4cc(-c5cnn(C)c5)cnc4N)cc3)cc2)CC1 | enzyme activity, inhibitor | 0.1 µM |  | inhibition | 3%
Cc1nc2c(F)cc(-c3nc(Nc4ccc(CNC(=O)CCCCCCC(=O)NO)cc4)ncc3F)cc2n1C(C)C | enzyme activity, inhibitor | 1 µM |  | inhibition | 82%
NC(=O)[C@@H](O)C[C@H]1CCc2sc3ncnc(O[C@H]4CC[C@H](N5CCOCC5)CC4)c3c21 | enzyme activity, inhibitor | 10 µM |  | inhibition | 13%
CNC(=O)C1CCN(c2cc(C)c(F)cc2NC(=O)c2ccc(-c3cc(O)ccc3C)c(C)c2)CC1 | binding, competition with immobilised ligand | 1 µM |  | remaining binding | 100%
CNC1C[S+]2CC[S+]3CC[S+](C1)[Ru-4]321([N]=C=S)[n]2c3ccc(OC)cc3c3c4c(c5cc(F)c[n+]1c5c32)C(=O)NC4=O (stereo not shown) | KinomeScan | 0.1 µM | baseline: untreated | remaining binding | 70%
COc1cc(Nc2nccc(-c3cnn4nc(OC)ccc34)n2)cc(C(F)(F)F)c1 | binding, competition with immobilised ligand | 1 µM |  | remaining binding | 82%
C=CC(=O)N1CCc2ccc(-n3c(=O)ccc4cnc5ccc(-c6cnn(C)c6)cc5c43)cc21 | KINOMEscan | 1 µM | baseline: DMSO control | remaining binding | 100%

Repeated from above:
Compound | assay | setting | scale | endpoint | result
CCn1cc(C(=O)O)c(=O)c2c(N)c(F)c(NC3CCCCC3)cc21 | kinase activity | 0.1 µM, with: ATP at Km |  | inhibition | -5.9%
NC(=O)C[C@H]1CCc2sc3ncnc(O[C@H]4CC[C@H](N5CCOCC5)CC4)c3c21 | enzyme activity, inhibitor | 10 µM |  | inhibition | 3%
CCN1CCN(Cc2ccc(C(=O)Nc3ccc(C)c(NCc4cnc5[nH]ccc5c4OC)c3)cc2C(F)(F)F)CC1 | binding, competition with immobilised ligand | 1 µM |  | remaining binding | 49%
